Assay results gathered from unrelated publications.
± gives the spread as reported.

CSCC[C@@H]1NC(=O)CN(S(C)(=O)=O)CCNC(=O)[C@H](CCCCN)NC(=O)[C@H](CC(C)C)NC(=O)[C@H](CCCCN)NC(=O)[C@H](CC(C)C)NC(=O)[C@H](CCCCN)NC(=O)CN(S(C)(=O)=O)CCNC(=O)[C@H](Cc2c[nH]c3ccccc23)NC(=O)[C@H](CO)NC(=O)[C@H](C(C)C)NC(=O)[C@H](C(C)C)NC1=O — IC50 (NCI-H929; viability, TO-PRO-3 staining, flow cytometry): 15.5 µM
CC1(C)CCCC(C)(C2CCC3(C)C2C(O)CC2C4(C)CCC(O)C(C)(C)C4C(OC(=O)c4cn(-c5ccc(Cl)cc5)nn4)CC23C)O1 (centres unmarked) — IC50 (Hep3B; HRE reporter gene, inhibitor; 24 h, hypoxia): > 30 µM
CC(C)=CCc1c2c(c(O)c3c(=O)c(-c4ccc(O)cc4)coc13)C=CC(C)(C)O2 — IC50 (Huh-7; cell growth or viability, MTT; 24 h): 16.3 µM
COc1ccc(-n2cc(C(=O)OC3CCC4(C)C(C(O)CC5(C)C4CC(O)C4C(C6(C)CCCC(C)(C)O6)CCC45C)C3(C)C)nn2)cc1 (centres unmarked) — IC50 (Hep3B; HRE reporter gene, inhibitor; 24 h, hypoxia): 0.33 ± 0.1 µM
CC(C)C1OC(=O)C(NC(=O)c2cccc(O)c2)C(C)OC(=O)C(C(C)C)OC(=O)C(C)(C)C(=O)C(Cc2ccccc2)OC1=O (centres unmarked) — IC50 (SGC-7901/DDP cisplatin-resistant; cell viability, CCK-8; 72 h): > 20 µM
CCCC[C@@H]1NC(=O)CN(S(C)(=O)=O)CCNC(=O)[C@H](CCCCN)NC(=O)[C@H](CC(C)C)NC(=O)[C@H](CCCCN)NC(=O)[C@H](CC(C)C)NC(=O)[C@H](CCCCN)NC(=O)CN(S(C)(=O)=O)CCNC(=O)[C@H](Cc2c[nH]c3ccccc23)NC(=O)[C@H](CO)NC(=O)[C@H](C(C)C)NC(=O)[C@H](C(C)C)NC1=O — IC50 (NCI-H929; viability, TO-PRO-3 staining, flow cytometry): 2.6 µM
O=C(/C=C/C=C/c1ccccc1)c1ccccc1OCc1cc(F)cc(F)c1 — IC50 (SK-BR-3; cell growth or viability, MTT; 48 h): 16.9 µM
Cc1c(OCc2ccccc2)c(=O)ccn1CCCOC(=O)c1ccc(Br)cc1 — IC50 (fibroblast cells; cell viability, MTT; 48 h): 71 µg/mL
COc1cc(CN2CCN(c3ccc(F)cc3)CC2)c2cc3[n+](cc2c1O)CCc1cc2c(cc1-3)OCO2 — IC50 (Ca-Ski; cell growth or viability, SRB; 48 h): 5.78 µg/mL
COc1cc(C2c3cc4c(cc3C(OC3OC5COC(C)OC5C(O)C3O)C3COC(=O)C23)OCO4)cc(OC)c1OC(=O)OC1C=CCCC(C)(C(=O)NC(CC(=O)O)C(=O)O)CC1 (centres unmarked) — IC50 (MC-38; cell growth or viability, MTT; 24 h): 10.8 µM
c1n[nH]cc1-c1nc2ccc3[nH]ncc3c2c2c1CCCC2 — IC50 (MOLM-14; cell growth or viability, resazurin; 72 h): 0.0615 µM
Brc1ccc(Nc2nc(NN=Cc3c[nH]c4ccccc34)nc(-n3ccnc3)n2)cc1 — IC50 (SK-BR-3; cell growth or viability, SRB; 5 days): 1.6 µM
CC(C)Cc1ccc(C(C)C(=O)N/N=C/c2ccc(OCC(=O)N/N=C/c3ccc([N+](=O)[O-])cc3)cc2)cc1 (centres unmarked) — IC50 (U87 MG; cytotoxicity, MTT): 36.7 ± 0.14 µM
O=C(CCc1ccc(O)cc1)c1c(O)cc(O)cc1O — IC50 (human cells; NF-κB reporter gene, inhibitor; with: TNF-alpha): 40.7 µM
O=C(NNc1nc(-c2ccccc2)cs1)c1cc2c(ccc3ccccc32)oc1=O — IC50 (EA.hy 926; cell growth or viability, SRB; 72 h): 96.6 µM
CC1(C)CCCC(C)(C2CCC3(C)C2C(O)CC2C4(C)CCC(OC(=O)c5cn(-c6ccccc6)nn5)C(C)(C)C4C(O)CC23C)O1 (centres unmarked) — IC50 (Hep3B; HRE reporter gene, inhibitor; 24 h, hypoxia): 0.43 ± 0.06 µM
C=CC(OC(C)=O)c1cc(OC)c(OC(C)=O)c(OC)c1 (centres unmarked) — IC50 (HMEC; MTT; 24 h): > 50 µM
Cc1ccc(CN2C(=O)/C(=N\c3ccc(Cl)cc3Br)c3ccccc32)cc1 — IC50 (B16; cell growth or viability, MTT; 48 h): 0.26 µM
C[C@]12CC/C(=N\OCCN3CCCC3)C=C1CCC1C2CC[C@]2(C)/C(=C/c3ccccn3)CCC12 (some centres unmarked) — IC50 (CEM; cytotoxicity, alamarBlue; 72 h): 30.4 µM
COc1cc(CC(=O)N2CC(=O)N[C@@H](Cc3ccccc3)CN(C(=O)Cc3ccc4ccccc4c3)CC(=O)N[C@@H](CCCCN)CN(C(=O)Cc3ccc4c(c3)OCO4)CC(=O)N[C@@H](CCCCN)CN(CC(N)=O)C(=O)CCSCc3ccc(cc3)C(=O)N[C@@H](CC(C)C)C2)cc(OC)c1 — IC50 (SK-BR-3; western blot, measured: phospho-AKT; 4 h): 16.9 µM
Oc1ccc(C(=NNc2ccccc2)c2ccc(O)cc2)cc1 — IC50 (NCI-H358; cell growth or viability, ATP luminescence; 72 h): 37.6 µM
O=[N+]([O-])c1ccc(C=[N+]2N=C(Nc3ccccc3)[S][Pt-]2([Cl])[Cl])s1 — IC50 (MDCK; cell proliferation): 3.4 µM
O=C(NO)c1ccc(Nc2cnc3ccccn23)cc1 — IC50 (CAL-27; HDAC activity, inhibitor, whole-cell): 13.9 µM
O=C1/C(=C(\O)c2ccccc2)C(=O)[C@@]2(C(=O)OC3CCCCC3)CS[C@H](c3ccccc3)N12 — IC50 (MDCK; cell growth or viability, resazurin): 62.5 µg/mL
CC(C)[C@H](N)C(=O)OC1CCC2(C)C(C(O)CC3(C)C2CC(O)C2C(C4(C)CCCC(C)(C)O4)CCC23C)C1(C)C (some centres unmarked) — IC50 (Hep3B; HRE reporter gene, inhibitor; 24 h, hypoxia): 1.51 ± 0.15 µM
Cc1nnc(-c2ccc(N3CCC(Oc4cc(F)ccc4Cl)CC3)nn2)o1 — IC50 (NSCLC cell lines; cell viability; range over eight lines): 0.003 to 0.015 µM
COc1ccc(C(c2c[nH]c3ccc(OC)cc23)c2c[nH]c3ccc(OC)cc23)cc1 — IC50 (B16; cell growth or viability, MTT; 24 h): 8.89 µM
N[C@@H](CCC(=O)N[C@@H](CS[Se]Cc1ccc(-c2cc(C(F)(F)F)nn2-c2ccc(S(N)(=O)=O)cc2)cc1)C(=O)NCC(=O)O)C(=O)O — IC50 (UACC-903 melanoma cells; cell viability, MTS; 72 h, metastatic stage): 14.2 ± 1.2 µM
CCc1n(CC(=O)O[C@@H]2C[C@H](C)CC[C@H]2C(C)C)c2ccccc2[n+]1C — IC50 (Daoy; cell growth or viability): 8.26 µM
Cc1ccc(NC(=O)c2c(C)oc3ccc(O)c(CN4CCCCCC4)c23)cc1 — IC50 (KMM-1; cell growth or viability, MTS; 72 h): 15.6 µM
C[N+]1(C)CC[NH2+][Pt-2]1([OH])([Cl])([Cl])[O]C(=O)CCC(=O)OCCOC(=O)CCC(=O)[O][Pt-2]1([OH])([Cl])([Cl])[NH2+]CC[N+]1(C)C — IC50 (P31; cell viability, EZ4U; 96 h): 137 ± 6 µM
CC(C)(C)OC(=O)N[C@@H](Cc1c[nH]c2ccccc12)C(=O)OC1CCC2(C)C(C(O)CC3(C)C2CC(O)C2C(C4(C)CCCC(C)(C)O4)CCC23C)C1(C)C (some centres unmarked) — IC50 (Hep3B; HRE reporter gene, inhibitor; 24 h, hypoxia): 4.89 ± 0.12 µM
CN(C)c1ccc(-c2nc3ccccn3c2Nc2ccc(C(=O)NO)cc2)cc1 — IC50 (CAL-27; cell growth or viability, MTT): 3.64 µM
CC1(C)Cc2c(-c3ccccc3)c(-c3ccc(Cl)cc3)c(CC(=O)O)n2C1 — IC50 (THP-1-derived macrophages; LTB4 production; with: LPS): 0.53 µM
O=c1[nH]c2ccccc2nc1/C=C/c1ccc2ccccc2n1 — IC50 (HeLa 229; cell growth or viability, MTT; 72 h): > 50 µM

Some of these lines once more:
CC(C)(C)OC(=O)N[C@@H](Cc1c[nH]c2ccccc12)C(=O)OC1CCC2(C)C(C(O)CC3(C)C2CC(O)C2C(C4(C)CCCC(C)(C)O4)CCC23C)C1(C)C (some centres unmarked) — IC50 (Hep3B; HRE reporter gene, inhibitor; 24 h, hypoxia): 4.89 ± 0.12 µM
C[N+]1(C)CC[NH2+][Pt-2]1([OH])([Cl])([Cl])[O]C(=O)CCC(=O)OCCOC(=O)CCC(=O)[O][Pt-2]1([OH])([Cl])([Cl])[NH2+]CC[N+]1(C)C — IC50 (P31; cell viability, EZ4U; 96 h): 137 ± 6 µM
O=C(/C=C/C=C/c1ccccc1)c1ccccc1OCc1cc(F)cc(F)c1 — IC50 (SK-BR-3; cell growth or viability, MTT; 48 h): 16.9 µM
